Measurements gathered from unrelated publications.
Every numbered part comes from another study and shows a few of its results, in no order. Changes are numbered by the printed parent chain.

Sample 1
Target: Sal-like protein 4, full length isoform A (SALL4, Homo sapiens, UniProt Q9UJQ4, residues 1-1053)
UniProt Q9UJQ4, sequence (whole entry, looked up): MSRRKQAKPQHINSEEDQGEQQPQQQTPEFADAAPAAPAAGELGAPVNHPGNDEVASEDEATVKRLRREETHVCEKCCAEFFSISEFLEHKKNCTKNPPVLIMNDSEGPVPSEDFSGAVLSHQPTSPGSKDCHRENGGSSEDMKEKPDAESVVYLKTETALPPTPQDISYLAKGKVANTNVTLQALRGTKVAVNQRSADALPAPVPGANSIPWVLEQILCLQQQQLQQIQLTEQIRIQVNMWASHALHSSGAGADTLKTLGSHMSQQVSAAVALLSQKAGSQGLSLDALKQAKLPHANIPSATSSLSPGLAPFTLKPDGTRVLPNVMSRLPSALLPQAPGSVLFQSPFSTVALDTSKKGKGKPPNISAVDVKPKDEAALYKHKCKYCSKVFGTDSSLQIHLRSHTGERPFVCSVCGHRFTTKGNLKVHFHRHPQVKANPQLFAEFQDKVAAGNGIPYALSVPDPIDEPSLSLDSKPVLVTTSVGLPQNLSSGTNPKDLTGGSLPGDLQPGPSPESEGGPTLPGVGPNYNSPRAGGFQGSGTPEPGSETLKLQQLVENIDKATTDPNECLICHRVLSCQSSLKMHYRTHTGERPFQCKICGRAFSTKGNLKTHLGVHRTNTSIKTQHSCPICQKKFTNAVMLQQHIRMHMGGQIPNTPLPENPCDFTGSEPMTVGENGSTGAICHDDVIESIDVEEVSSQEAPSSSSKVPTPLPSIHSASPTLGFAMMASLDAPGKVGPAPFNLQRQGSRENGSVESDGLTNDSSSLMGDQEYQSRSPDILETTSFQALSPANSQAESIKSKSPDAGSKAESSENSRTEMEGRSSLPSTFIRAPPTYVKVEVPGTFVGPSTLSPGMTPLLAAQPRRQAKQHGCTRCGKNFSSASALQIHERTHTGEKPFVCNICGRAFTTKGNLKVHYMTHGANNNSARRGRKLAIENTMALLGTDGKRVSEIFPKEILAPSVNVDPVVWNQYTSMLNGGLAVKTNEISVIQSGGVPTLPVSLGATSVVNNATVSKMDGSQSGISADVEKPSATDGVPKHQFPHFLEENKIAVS
Method: universal PBM
Molecule type: double-stranded DNA, one strand shown
Matrix: in vitro
Tested at: 600 nM
Notes: 8-mer, flanks averaged, mean of replicates
Direction: higher = stronger binding
Strand	E-score
GAGCAATC	-0.118
GTAGTCCA	-0.0661
CAACCCAG	-0.262
GATTAAGA	0.207
AAAGCTGC	-0.0917
AAAGCGCC	-0.122
CACACCAC	-0.0695
CCCGGTTC	-0.358
GCCAAAGC	-0.168
GGTATGGA	-0.00297
AGCATAAG	0.0951

Sample 2
Target: CEP164, C-terminal peptide (human)
Method: DHFR complementation, deep sequencing
Matrix: yeast
Notes: single substitutions, model-inferred values
Relative to: wild type
Direction: higher = weaker binding
Starting sequence: PDZK1, PDZ domain 2 (human); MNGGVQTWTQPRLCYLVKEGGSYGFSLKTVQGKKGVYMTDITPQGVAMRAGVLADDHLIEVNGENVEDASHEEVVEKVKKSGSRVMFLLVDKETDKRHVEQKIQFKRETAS; partner HNRVKVYRF
Variant	binding free energy change
G63I	0.594 kcal/mol
A69W	-0.22 kcal/mol
A110P	-0.0896 kcal/mol

Sample 3
Target: CCNB2, cyclin fold, Cln2 fusion (human)
Method: yeast growth competition, sequencing
Matrix: yeast
Notes: weak parent motif
Relative to: not given
Direction: higher = stronger binding
Starting sequence: RBL2 docking peptide (human); STTRRRLFVENDS
Variant	normalised enrichment score
QTTRRRLFVENDS [S1Q]	0.123
FTTRRRLFVENDS [S1F]	-0.0326
STTRRRLFVEMDS [N11M]	0.727
STTRRRLKVENDS [F8K]	0.366
STTRRRLGVENDS [F8G]	0.4
STTRTRLFVENDS [R5T]	0.899

Sample 4
Target: ABI1, truncated, D143A, DHFR fusion (Arabidopsis thaliana)
Method: DHFR PCA, deep sequencing
Matrix: yeast
Notes: methotrexate growth selection, single substitutions
With: (+)-ABA 17 µM
Relative to: wild-type fitted maximum
Direction: higher = stronger binding
Starting sequence: PYL1, truncated, DHFR fusion (Arabidopsis thaliana); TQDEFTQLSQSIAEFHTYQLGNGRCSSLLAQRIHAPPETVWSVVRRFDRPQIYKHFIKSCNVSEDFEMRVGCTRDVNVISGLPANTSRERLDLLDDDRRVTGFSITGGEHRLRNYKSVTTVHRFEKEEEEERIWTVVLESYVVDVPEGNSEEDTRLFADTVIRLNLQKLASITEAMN; partner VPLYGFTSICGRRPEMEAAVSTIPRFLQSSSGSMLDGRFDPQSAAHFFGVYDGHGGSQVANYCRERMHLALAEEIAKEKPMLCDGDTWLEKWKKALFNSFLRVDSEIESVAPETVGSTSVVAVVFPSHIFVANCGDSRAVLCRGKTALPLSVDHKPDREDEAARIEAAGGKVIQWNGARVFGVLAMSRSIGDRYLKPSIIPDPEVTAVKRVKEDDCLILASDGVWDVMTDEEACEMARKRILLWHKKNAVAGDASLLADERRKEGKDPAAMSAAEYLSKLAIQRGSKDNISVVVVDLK
Variant	relative binding score [%]
H34M	82.6
P83K	4.68
R32G	40.2
V161E	-15.5
S26V	52.1
E147H	78.5

Other studies, line by line
Substance	target	test	system	setting	scale	measurement	value
PhoQ, residues 284 288 289 292 302 303 QWQEDG	PhoP, residues 12 14 15 18 19 NHFRA (Escherichia coli, UniProt P23836)	Sort-seq, measured: YFP reporter	E. coli	PhoQ-PhoP variant library, with: 10 µM Mg2+	relative to: high Mg2+ state, higher = stronger signaling	fold induction	2.43

For quick reference, copied from above (sample 1):
Strand	E-score
CAACCCAG	-0.262
GATTAAGA	0.207
AAAGCTGC	-0.0917
AAAGCGCC	-0.122
